Measured values collected from several papers.
Values joined by “and” are separate records of one study, mostly repeats; a detail may differ. ± gives the spread as reported.
Organism: Escherichia coli

Nc1ccc2c(c1)B(O)OC2 — post-antibiotic effect (ATCC 25922; 16xMIC, 1 h): 0.85 ± 0.04 h
OC[C@H]1O[C@@H]2O[C@H]3[C@H](O)[C@@H](O)[C@@H](O[C@H]4[C@H](O)[C@@H](O)[C@@H](O[C@H]5[C@H](O)[C@@H](O)[C@@H](O[C@H]6[C@H](O)[C@@H](O)[C@@H](O[C@H]7[C@H](O)[C@@H](O)[C@@H](O[C@H]8[C@H](O)[C@@H](O)[C@@H](O[C@H]1[C@H](O)[C@H]2O)O[C@@H]8CO)O[C@@H]7CO)O[C@@H]6CO)O[C@@H]5CO)O[C@@H]4CO)O[C@@H]3CO — inhibition (LuxR reporter, antagonist; DH5α sensor strain; 100 µM, together with: OHHL 200 nM): -7 ± 2%
COC(=O)[C@H]1[C@H]2C[C@@H]3c4[nH]c5cc(OC)ccc5c4CCN3C[C@H]2C[C@@H](OC(=O)c2cc(OC)c(OC)c(OC)c2)[C@@H]1OC — FIC index (checkerboard; tetracycline-resistant; 128 µM, together with: tetracycline): 1
C[C@@H](O)[C@H]1C(=O)N2C(C(=O)O)=C(SCCN=CN)C[C@H]12 — bacterial load (2904, female ICR mice, peritonitis, liver; dose not given, 168 h): 4.1 log CFU and 3.67 log CFU and 5.15 log CFU and 3.52 log CFU and 5.4 log CFU and 4.32 log CFU
CC(=O)Oc1ccc(-c2c(C(N)=O)c(N)n(N)c(=O)c2C#N)cc1 — viable count (time-kill; 1 x MIC, 0 h): 6.51 log CFU/mL
C#CCCCC(=O)NCC — inhibition (LuxR reporter bioluminescence, antagonist; DH5α sensor strain; 200 µM, together with: OHHL 200 nM): 2 ± 4%
CC(C)Oc1c(NC(=O)c2ccc(NC(=O)[C@H](CC(N)=O)NC(=O)c3ccc(NC(=O)c4ccc(C#N)cc4)cc3)cc2)ccc(C(=O)Nc2ccc(C(=O)O)cc2)c1O — bacterial burden reduction (ATCC 25922, neutropenic mouse thigh infection; intravenous, 50 mg/kg/day, 12.5 mg/kg/dose; reference: vehicle): 4.89 log10 CFU/g
N#Cc1c(-c2ccc(OCc3ccccc3)cc2)c(C(N)=O)c(N)n(N)c1=O — viable count (time-kill; 1 x MIC, 90 min): 0 log CFU/mL
